Results from different studies.
Each line is one published result; not all experiments were run side by side. “And” joins repeats or separate records; there may be more than shown. ± marks the error that the study gave. ≈ marks a conversion by molar mass, not a printed value.

| Structure (SMILES) | tested on | test | system | conditions | how to read | endpoint | value |
| --- | --- | --- | --- | --- | --- | --- | --- |
| O=C1NC(=O)C(C2C3=C(CCCC3=O)Oc3ccc([N+](=O)[O-])cc32)C(=O)N1 (stereo not shown) | 3T3-L1 preadipocytes | adipogenesis, Oil Red O staining | – | IC20, 14 days, single replicate | – | lipid content | 0.492 OD492 and 0.51 OD492 and 0.578 OD492 |
| CC[C@H](C)[C@@H]1NC(=O)[C@@H]2CCCN2C(=O)[C@H](CC(C)C)NC(=O)[C@H](CC(C)C)NC(=O)CNC(=O)[C@@H](NC(=O)[C@@H](NC(=O)[C@H](CC(=O)O)NC(=O)CNC(=O)[C@@H](NC(=O)[C@H](C)NC(=O)CNC(=O)[C@H](CCCCN)NC(=O)[C@H](CC(C)C)NC(=O)[C@H](CC(C)C)NC(=O)[C@H](CCCCN)NC(=O)CNC(=O)[C@@H](NC(=O)[C@@H](N)CC(C)C)C(C)C)C(C)C)C(C)C)CSSC[C@@H](C(=O)O)NC1=O | – | RNA-seq, measured: Itgal mRNA | mouse traumatic brain injury, frontal cortex and hippocampus | dose not given | baseline: TBI plus compound vs TBI | log2 fold change | -2.55 |
| CCCCC1(CCCC)CN(c2ccccc2)c2cc(SC)c(OCC(=O)N[C@@H](C(=O)NCC(=O)O)c3ccccc3)cc2S(=O)(=O)C1 | – | measured: HDL cholesterol | human, serum | 15 mg once daily, day 14 | – | serum HDL-C | 43.2 mg/dL |
| Nc1ncnc2c1ncn2[C@@H]1O[C@@H]2COP(=O)(O)O[C@H]3[C@@H](O)[C@H](n4cnc5c(=O)[nH]cnc54)O[C@@H]3COP(=O)(O)O[C@H]2[C@H]1O | West Nile virus | RNA sequencing Reactome analysis, measured: Mitotic Anaphase (R-HSA-68882) | HFF-1 | concentration not given, upregulated pathways, with: West Nile virus infection | baseline: WNV-infected without compound | fold enrichment | 2.97 |
| COc1c(CCC[P+](c2ccccc2)(c2ccccc2)c2ccccc2)cc2c(c1OC)OCO2.[I-] | HL-60(TB) | SRB | – | – | – | Log10TGI | -5.83 log M |
| CN1CCN(S(=O)(=O)c2cc([N+](=O)[O-])ccc2N(CCOS(C)(=O)=O)CCOS(C)(=O)=O)CC1 | – | – | NSG mice, sample BF PDX | intraperitoneal, 25 mg/kg weekly x3 | baseline: vehicle | EFS delay (T-C) | 0.2 days |
| CS(=O)(=O)Nc1ncn(-c2cc(F)c(COc3ccc(OS(=O)(=O)F)cc3)c(F)c2)n1 | Mycobacterium tuberculosis | – | Erdman | – | – | MIC90 | 0.04 µM (≈ 0.0191 µg/mL) |
| CC[C@H](C)[C@H](NC(=O)[C@H](C)NC(=O)[C@H](CCCCN)NC(=O)[C@H](CC(C)C)NC(=O)[C@H](C)NC(=O)[C@@H](NC(=O)[C@H](Cc1c[nH]cn1)NC(=O)[C@H](CC(C)C)NC(=O)[C@@H](NC(=O)[C@@H](NC(=O)[C@H](CCCCN)NC(=O)[C@H](C)NC(=O)[C@H](C)NC(=O)[C@H](CO)NC(=O)[C@H](CCCCN)NC(=O)[C@H](Cc1ccccc1)NC(=O)[C@@H](NC(=O)[C@H](CCCCN)NC(=O)[C@H](CC(C)C)NC(=O)[C@H](Cc1ccccc1)NC(=O)[C@H](CO)NC(=O)[C@H](CCCCN)NC(=O)[C@H](Cc1c[nH]c2ccccc12)NC(=O)[C@H](CCCCN)NC(C)=O)[C@@H](C)O)[C@@H](C)O)C(C)C)[C@@H](C)O)C(=O)N[C@@H](CO)C(=O)N[C@@H](CO)C(N)=O | Klebsiella pneumoniae | – | – | 80 strains | – | MBC50 | 8 µg/mL (≈ 2.73 µM) |
| CC(C)N1CCC(NC2CCN(c3cccc(-c4cc5cc(F)ccc5[nH]4)c3)CC2)CC1 | SK-MEL-5 | – | – | – | – | CC50 | 5.46 µM |
| c1ccc(C(NCCNC(c2ccccc2)c2ccccc2)c2ccccc2)cc1 | adrenergic alpha2 receptor, rat | binding | – | 10 µM, Eurofins selectivity panel | – | inhibition | -13% |
| O=C(NNc1ccccc1)c1nnc(CC23CC4CC(CC(C4)C2)C3)o1 | Fusarium graminearum | fungal growth, inhibitor | – | – | – | EC50 | > 25 µg/mL |
| CC(=O)c1c(C)c2cnc(Nc3ccc(C4CCN(CCS(C)(=O)=O)CC4)cn3)nc2n(C2CCCC2)c1=O | – | tumour growth | mouse, MDA-MB-435S xenograft | oral, 40 mg/kg twice daily, 25 days | – | T/C | 48% |
| CN1CC[C@]23c4c5ccc(O)c4O[C@H]2[C@@H](OS(=O)(=O)O)C=C[C@H]3[C@H]1C5 | – | hot water tail withdrawal test | STZ-diabetic Sprague-Dawley rats | ip, 0.3 mg/kg | – | peak increase in tail withdrawal latency | 3.4 ± 0.5 s |
| COc1cc(CCC[P+](c2ccccc2)(c2ccccc2)c2ccccc2)c(OC)c2c1OCO2.[I-] | SN12C | SRB | – | – | – | LC50 | -4.38 log M |
| O=C(NNc1ccc(Cl)cc1)c1nnc(C23CC4CC(CC(C4)C2)C3)o1 | Fusarium graminearum | fungal growth, inhibitor | – | 50 µg/mL | – | inhibition | 100% |
| CN1CCN(C2(CNC3CCN(c4cccc(-c5cc6cc(F)ccc6[nH]5)c4)CC3)CCC2)CC1 | HOP-92 | – | – | – | – | GI50 | 1.48 µM |
| CS(=O)(=O)CCCn1c(Cn2c(=O)n(CC(F)(F)F)c3ccncc32)cc2cc(Cl)ccc21 | respiratory syncytial virus | RT-qPCR | hospitalized infants 1-24 months, nasal swab | oral, 8 mg/kg daily, day 5, cohort 6-24 months | baseline: placebo | LS mean difference vs placebo | 0.4 log10 copies/mL |
| C[C@H](C(=O)N[C@H]1COc2ccccc2[C@@H]1S(C)(=O)=O)c1ccc(F)cc1 | GABAA central, rat | binding | – | 10 µM, Eurofins selectivity panel, with: muscimol | – | inhibition | 7% |
| COc1ccc(-n2nc(C(C)=O)s/c2=N\N=C(/C)c2ccc(NC(C)=O)cc2)cc1 | HepG2 | – | – | 0.625 µM | – | toxicity | 94.8% |

A few entries again:
| Structure (SMILES) | tested on | test | system | conditions | how to read | endpoint | value |
| --- | --- | --- | --- | --- | --- | --- | --- |
| CS(=O)(=O)CCCn1c(Cn2c(=O)n(CC(F)(F)F)c3ccncc32)cc2cc(Cl)ccc21 | respiratory syncytial virus | RT-qPCR | hospitalized infants 1-24 months, nasal swab | oral, 8 mg/kg daily, day 5, cohort 6-24 months | baseline: placebo | LS mean difference vs placebo | 0.4 log10 copies/mL |
